Measured values gathered from unrelated publications.
Protocols differ between the studies behind these lines. Values joined by “and” are separate records of one study, mostly repeats; a detail may differ.
Target: Casein kinase I isoform alpha (CSNK1A1, Homo sapiens, UniProt P48729)

With `CNC1C[S+]2CC[S+]3CC[S+](C1)[Ru-4]321([N]=C=S)[n]2c3ccc(OC)cc3c3c4c(c5cc(F)c[n+]1c5c32)C(=O)NC4=O` (stereo not drawn) the remaining binding was 90% (KinomeScan; 0.1 µM; reference: untreated).
With `Nc1ncc2c(n1)-c1c([nH]c3ccc(C4=CCOCC4)cc13)CCC2` the remaining binding was 94% (binding, competition with immobilised ligand; 1 µM).
`CNC(=O)C1CCN(c2cc(C)c(F)cc2NC(=O)c2ccc(-c3cc(O)ccc3C)c(C)c2)CC1` gave a remaining binding of 22% (binding, competition with immobilised ligand; 1 µM).
`C=CC(=O)N1CCCC(n2c(=O)c3ncccc3n(Cc3ccc(Oc4ccccc4)cc3)c2=O)C1` (stereo not drawn) gave a remaining binding of 100% (cell-free assay, competition with immobilised ligand; 1 µM).
With `Cc1cnc2nc1Nc1cccc(c1)COC/C=C/COCc1cc(ccc1OCCN1CCOCC1)N2` the remaining binding was 99% (binding; 0.1 µM).
`CC(C)=CC1OC(C)(C)C2C=C3C(=O)C(Cl)=CC(O)C3C3C(O)C4OC4C(=O)C132` (stereo not drawn) has a remaining binding of 78% (cell-free assay, competition with immobilised ligand; 10 µM).
With `COCC12C(=O)NC3C4(C(OC)CC1O)C1CC5(O)C(OC)C(O)C(OC(C)=O)(C1C5OC(=O)c1ccccc1)C3(O)C(OC)C24` (stereo not drawn) the remaining activity was 93% and 107% (kinase activity, inhibitor, ProQinase kinase profiling; 25 µM; reference: control).
`COc1cc(Nc2nc(C)cc(-c3cnn4nc(OC)ccc34)n2)cc(C(F)(F)F)c1` gave a remaining activity of 77% (inhibitor; 1 µM; reference: control).
The remaining binding of `Cc1ccc(-c2c(/C=C(\C#N)C(=O)NC(C)C)n(CCCO)c3ncnc(N)c23)cc1` is reported as 100% (cell-free assay, competition with immobilised ligand; 1 µM).
`C=CC(=O)N1CCc2ccc(-n3c(=O)ccc4cnc5ccc(-c6cnn(C)c6)cc5c43)cc21` gave a remaining binding of 97% (KINOMEscan; 1 µM; reference: DMSO control).
The inhibition of `NC(=O)[C@@H](O)C[C@H]1CCc2sc3ncnc(O[C@H]4CC[C@H](N5CCOCC5)CC4)c3c21` is reported as 17% (enzyme activity, inhibitor; 10 µM).
For `COc1c(Cl)cccc1Nc1c(-c2ccncc2C#C[C@@]2(C)CCCN2C(=O)/C=C/CN(C)C)[nH]c2c1C(=O)NCC2`, the remaining binding was 84% (cell-free assay, competition with immobilised ligand; 3 µM).
